Results from different studies.
Each numbered part is a random draw from the data of one study; scales do not carry over between parts. Substitutions count along the parent as printed.

Set 1
Target: Ras GTPase-activating protein-binding protein 1, full length (G3BP1, Homo sapiens, UniProt Q13283)
UniProt Q13283, sequence (whole entry, looked up): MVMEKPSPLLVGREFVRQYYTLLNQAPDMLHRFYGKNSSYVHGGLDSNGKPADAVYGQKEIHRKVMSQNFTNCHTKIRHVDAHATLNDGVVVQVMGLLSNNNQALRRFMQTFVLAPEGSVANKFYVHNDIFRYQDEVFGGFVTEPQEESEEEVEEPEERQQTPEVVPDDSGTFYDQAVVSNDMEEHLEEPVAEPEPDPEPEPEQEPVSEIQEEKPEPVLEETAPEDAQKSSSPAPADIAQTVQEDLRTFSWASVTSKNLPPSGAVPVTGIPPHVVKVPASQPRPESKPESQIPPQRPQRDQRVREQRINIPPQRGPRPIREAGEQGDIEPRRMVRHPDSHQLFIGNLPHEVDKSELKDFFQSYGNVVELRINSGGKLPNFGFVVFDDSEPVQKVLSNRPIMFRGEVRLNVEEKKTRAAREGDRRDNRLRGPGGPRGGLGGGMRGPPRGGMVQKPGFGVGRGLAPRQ
Method: RNA Bind-n-Seq
Molecule type: RNA
Sample: in vitro
Concentration: 200 nM
Notes: whole 134-nt RNA, ends assumed
Added: 150 mM LiCl
Reference: input library
Reading: higher = stronger binding
All molecules: 7-deaza-guanosine replaces G
The log2 enrichment of `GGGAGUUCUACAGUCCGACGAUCACCUUGCAGGUGGGCAUCUUUGGGAAGUGGGGCAAGGGGGGGAUAGGGAGGGGGGUAACACUUUGGGAACAGGUGGUCCCAGGUCGUUUCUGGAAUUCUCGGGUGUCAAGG` is reported as 0.475.
The log2 enrichment of `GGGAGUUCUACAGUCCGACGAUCUGGCCCUGGUGGCAUGCGGGGAGGAAGAGGUGGCCUCAUGGAUCGUGGUGGUCCCGGUGGAAUGUUCAGAGGUGGCCGUGGUGGAAACAGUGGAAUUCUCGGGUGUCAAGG` is reported as -0.194.
`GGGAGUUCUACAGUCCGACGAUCUCCUGUGCUACACAUCGUAUGUACCGAAUCGGGCCCCCCGGCCCCCCGGGGCCCCCCGGAAAGUAUUAUGUUACGCCGUUCGGAUCUGCAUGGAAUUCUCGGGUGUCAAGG` has a log2 enrichment of 0.0278.
`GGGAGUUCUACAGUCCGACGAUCCAAGUCCUGUGCUACACAUCGUAUGUACCGAAUCGGUUUGGUUUUUUUGGAAAGGAAAGUAUUAUGUUACGCCGUUCGGAUCUGCACUUCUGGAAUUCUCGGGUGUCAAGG` has a log2 enrichment of -0.407.
For `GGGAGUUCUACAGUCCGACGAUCCACAGACAACACGCACCCACACAGACACAGAGGGAAGGGGUUGGGAUGGGGACAAAAUGCACAGCAGGGCGGGGUAGGACCCCAGCCCCUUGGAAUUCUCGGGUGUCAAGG`, the log2 enrichment was -0.206.
With `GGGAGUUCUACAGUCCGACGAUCCACAGACAACACGCACCCACACAGACACAGAGGGAAGGGGUUGGGAUGGGGACAGAGUGCACAGCAGGGCGGGGUAGGACCCCAGCCCCUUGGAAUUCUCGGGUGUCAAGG` the log2 enrichment was -0.0925.
`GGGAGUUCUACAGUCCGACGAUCACCAUGCAGGUGGGCAUCUUUGGGAAGUGGGGCAAGGGGGGGAUAGGGUGGGGGGUAACACUUUGGGAACAGGUGGUCCCAGGUCGUUUCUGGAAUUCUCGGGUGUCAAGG` has a log2 enrichment of 0.362.
`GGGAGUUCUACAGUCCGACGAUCUCCUGUGCUACACAUCGUAUGUACCGAAUCGGGUUUUUUGGGUUUUUUGGUUUUUUGGGGAAAGUAUUAUGUUACGCCGUUCGGAUCUGCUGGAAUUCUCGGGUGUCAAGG` gave a log2 enrichment of -0.226.

Set 2
Target: Sal-like protein 4, full length isoform A (SALL4, Homo sapiens, UniProt Q9UJQ4, residues 1-1053)
UniProt Q9UJQ4, sequence (whole entry, looked up): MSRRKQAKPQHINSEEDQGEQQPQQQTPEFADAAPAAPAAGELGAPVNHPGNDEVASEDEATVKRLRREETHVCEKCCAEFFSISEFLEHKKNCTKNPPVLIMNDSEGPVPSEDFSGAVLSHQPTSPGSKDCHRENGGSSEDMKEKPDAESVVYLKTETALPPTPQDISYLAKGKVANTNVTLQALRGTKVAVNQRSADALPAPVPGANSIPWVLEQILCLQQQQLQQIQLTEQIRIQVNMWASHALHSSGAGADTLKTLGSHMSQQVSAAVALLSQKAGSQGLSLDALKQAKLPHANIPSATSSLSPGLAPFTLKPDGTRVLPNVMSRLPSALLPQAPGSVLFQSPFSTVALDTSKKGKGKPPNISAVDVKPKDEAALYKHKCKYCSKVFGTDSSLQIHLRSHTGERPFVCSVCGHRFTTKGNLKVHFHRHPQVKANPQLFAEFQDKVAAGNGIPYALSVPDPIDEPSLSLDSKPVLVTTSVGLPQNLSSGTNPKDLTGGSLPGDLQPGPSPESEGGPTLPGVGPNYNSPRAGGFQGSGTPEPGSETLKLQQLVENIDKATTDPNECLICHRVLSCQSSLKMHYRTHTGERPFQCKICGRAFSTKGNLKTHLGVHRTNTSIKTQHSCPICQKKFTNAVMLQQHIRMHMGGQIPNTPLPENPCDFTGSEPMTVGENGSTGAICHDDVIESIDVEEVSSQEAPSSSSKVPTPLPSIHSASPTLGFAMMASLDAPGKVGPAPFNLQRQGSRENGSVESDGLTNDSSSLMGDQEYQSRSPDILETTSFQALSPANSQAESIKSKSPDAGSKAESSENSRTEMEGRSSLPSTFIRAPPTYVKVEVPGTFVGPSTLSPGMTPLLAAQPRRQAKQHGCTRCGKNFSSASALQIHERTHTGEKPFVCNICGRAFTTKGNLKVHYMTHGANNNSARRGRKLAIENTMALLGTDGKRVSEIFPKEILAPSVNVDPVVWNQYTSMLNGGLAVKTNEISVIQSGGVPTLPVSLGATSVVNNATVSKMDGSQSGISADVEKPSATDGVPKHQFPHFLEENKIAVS
Method: universal PBM
Molecule type: double-stranded DNA, one strand shown
Sample: in vitro
Concentration: 600 nM
Notes: 8-mer, flanks averaged, mean of replicates
Reading: higher = stronger binding
For `CCTGGCGA`, the E-score was -0.242.
For `AGCGGTGG`, the E-score was -0.328.
`GGCTCGCA` has an E-score of -0.118.
With `AGGTTCTA` the E-score was -0.0125.
`ACCCTTAA` gave an E-score of -0.00829.
`TGCGAGAA` has an E-score of -0.14.
The E-score of `AAGTAACG` is reported as 0.128.
`CTAACTTC` gave an E-score of 0.176.
With `GGACGGAA` the E-score was -0.135.
`CGCTTACC` has an E-score of -0.0383.
With `GGCCGCAA` the E-score was -0.23.
`GCTCGCGA` gave an E-score of -0.0627.
`GAGACCGA` gave an E-score of -0.245.
With `AAAGGTCT` the E-score was 0.0192.
The E-score of `ACCCACCC` is reported as -0.241.
`CAGCGTGA` gave an E-score of -0.163.

Set 3
Target: Transcriptional repressor CTCF (CTCF, Homo sapiens, UniProt P49711, residues 1-727, full length assumed)
UniProt P49711, sequence (whole entry, looked up): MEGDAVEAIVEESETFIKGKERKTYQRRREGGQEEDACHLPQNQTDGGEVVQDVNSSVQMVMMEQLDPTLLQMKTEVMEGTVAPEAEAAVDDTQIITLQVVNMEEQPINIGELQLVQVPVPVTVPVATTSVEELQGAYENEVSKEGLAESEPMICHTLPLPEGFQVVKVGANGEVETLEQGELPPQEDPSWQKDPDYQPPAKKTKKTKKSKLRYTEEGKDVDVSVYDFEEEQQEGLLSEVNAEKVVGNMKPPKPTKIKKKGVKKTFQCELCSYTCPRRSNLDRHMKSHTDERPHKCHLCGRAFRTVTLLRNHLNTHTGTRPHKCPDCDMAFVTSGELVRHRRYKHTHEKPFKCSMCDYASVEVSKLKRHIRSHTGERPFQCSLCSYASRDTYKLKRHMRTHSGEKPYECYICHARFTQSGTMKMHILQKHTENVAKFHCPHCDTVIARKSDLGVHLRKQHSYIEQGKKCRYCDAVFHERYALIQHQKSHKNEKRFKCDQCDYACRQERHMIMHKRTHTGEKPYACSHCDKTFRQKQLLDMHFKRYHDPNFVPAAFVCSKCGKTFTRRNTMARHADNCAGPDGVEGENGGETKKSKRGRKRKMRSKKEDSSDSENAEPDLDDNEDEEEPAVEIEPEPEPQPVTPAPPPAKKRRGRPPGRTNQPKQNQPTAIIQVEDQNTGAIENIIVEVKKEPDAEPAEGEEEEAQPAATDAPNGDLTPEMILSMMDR
Method: protein-binding microarray
Molecule type: double-stranded DNA, one strand shown
Sample: in vitro
Concentration: not given
Notes: k-mer, scored over probes, only values ≥0.25
Reading: higher = stronger binding
For `ATAATTAC`, the E-score was 0.324.
The E-score of `AAGTATAA` is reported as 0.305.
For `GAATATAC`, the E-score was 0.254.
`ATATAATG` gave an E-score of 0.306.
The E-score of `ATAATATA` is reported as 0.4.
With `ACTATAAA` the E-score was 0.308.
With `ATAATCGC` the E-score was 0.258.
`TATGAATA` has an E-score of 0.256.
`GGCGCAAA` gave an E-score of 0.356.
`ATATTACG` has an E-score of 0.263.
For `ATCATATA`, the E-score was 0.251.
The E-score of `ATAACGTA` is reported as 0.271.
With `ACCACATA` the E-score was 0.263.
For `AAATTAAT`, the E-score was 0.262.
For `AAAGTATT`, the E-score was 0.287.
`ATATAAAA` gave an E-score of 0.344.
`AGCGCTAT` gave an E-score of 0.36.
With `ATAAACTA` the E-score was 0.262.
`ATACTTTG` has an E-score of 0.268.
For `CGCGCTAC`, the E-score was 0.279.
With `AGGAATAT` the E-score was 0.267.
`GCAATACC` gave an E-score of 0.269.
`ATAATACG` has an E-score of 0.278.
For `GATTTATA`, the E-score was 0.272.
With `AATGCGAC` the E-score was 0.276.

Set 4
Target: ABI1, truncated, D143A, DHFR fusion (Arabidopsis thaliana)
Method: DHFR PCA, deep sequencing
Sample: yeast
Notes: methotrexate growth selection, single substitutions
Added: (+)-ABA 0.11 µM
Reference: wild-type fitted maximum
Reading: higher = stronger binding
Parent: PYL1, truncated, DHFR fusion (Arabidopsis thaliana); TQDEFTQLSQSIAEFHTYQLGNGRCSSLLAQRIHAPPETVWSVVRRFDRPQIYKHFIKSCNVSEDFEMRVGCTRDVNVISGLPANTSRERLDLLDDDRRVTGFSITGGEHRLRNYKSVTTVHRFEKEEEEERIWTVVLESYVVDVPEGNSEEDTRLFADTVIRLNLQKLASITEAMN
Under “relative binding score”, `L169N` is recorded as -4.88%.
`L91D` — result for “relative binding score”: -2.45%.
`T154N` — result for “relative binding score”: -1.43%.
`A170G` — result for “relative binding score”: 2.5%.
`D153G` — result for “relative binding score”: 2.62%.
Under “relative binding score”, `L29Y` is recorded as -1.73%.
`P146W`: “relative binding score” -5.39%.
`S9P`: “relative binding score” 5.83%.
`A30Q`: “relative binding score” 7.81%.
`C72L` — result for “relative binding score”: 0.96%.
`T1R`: “relative binding score” 32.8%.
Under “relative binding score”, `A13Q` is recorded as 38.7%.
`L164S` — result for “relative binding score”: 12.7%.
`P37K`: “relative binding score” -1.58%.
For `M68G`, “relative binding score” read 0.591%.
Under “relative binding score”, `L28E` is recorded as 5.04%.
`S117P`: “relative binding score” 5.97%.
`S9M`: “relative binding score” 29.1%.
`K116D`: “relative binding score” -1.16%.
`L112F` — result for “relative binding score”: 10.8%.
`T1H` — result for “relative binding score”: 30.6%.
For `I57D`, “relative binding score” read -5.47%.
For `A84G`, “relative binding score” read 44.4%.
`S80K` — result for “relative binding score”: 1.07%.
`Q19T`: “relative binding score” 36.2%.

Repeated from above (set 4):
`A30Q`: “relative binding score” 7.81%.
`L164S` — result for “relative binding score”: 12.7%.
`P146W`: “relative binding score” -5.39%.
`A170G` — result for “relative binding score”: 2.5%.
Under “relative binding score”, `A13Q` is recorded as 38.7%.
For `M68G`, “relative binding score” read 0.591%.
`K116D`: “relative binding score” -1.16%.
`P37K`: “relative binding score” -1.58%.
`Q19T`: “relative binding score” 36.2%.
`T154N` — result for “relative binding score”: -1.43%.
